Published values gathered from unrelated publications.
Each numbered part is a random draw from the data of one study; scales do not carry over between parts. “And” joins repeats or separate records; there may be more than shown.
Sequence of UniProt P35367 (whole entry, looked up): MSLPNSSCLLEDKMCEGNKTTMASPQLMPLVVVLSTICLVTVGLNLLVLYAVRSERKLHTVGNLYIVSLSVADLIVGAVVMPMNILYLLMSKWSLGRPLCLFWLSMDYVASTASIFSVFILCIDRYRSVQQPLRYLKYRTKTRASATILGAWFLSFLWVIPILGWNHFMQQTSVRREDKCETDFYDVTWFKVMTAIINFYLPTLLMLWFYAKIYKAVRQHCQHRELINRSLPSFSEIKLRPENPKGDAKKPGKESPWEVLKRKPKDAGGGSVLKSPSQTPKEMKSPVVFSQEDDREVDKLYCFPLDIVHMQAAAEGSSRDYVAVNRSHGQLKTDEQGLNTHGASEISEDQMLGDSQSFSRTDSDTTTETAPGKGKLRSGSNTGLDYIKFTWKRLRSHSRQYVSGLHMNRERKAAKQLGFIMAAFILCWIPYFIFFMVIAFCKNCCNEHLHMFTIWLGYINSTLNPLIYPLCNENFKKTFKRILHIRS
Sequence of UniProt P47898 (whole entry, looked up): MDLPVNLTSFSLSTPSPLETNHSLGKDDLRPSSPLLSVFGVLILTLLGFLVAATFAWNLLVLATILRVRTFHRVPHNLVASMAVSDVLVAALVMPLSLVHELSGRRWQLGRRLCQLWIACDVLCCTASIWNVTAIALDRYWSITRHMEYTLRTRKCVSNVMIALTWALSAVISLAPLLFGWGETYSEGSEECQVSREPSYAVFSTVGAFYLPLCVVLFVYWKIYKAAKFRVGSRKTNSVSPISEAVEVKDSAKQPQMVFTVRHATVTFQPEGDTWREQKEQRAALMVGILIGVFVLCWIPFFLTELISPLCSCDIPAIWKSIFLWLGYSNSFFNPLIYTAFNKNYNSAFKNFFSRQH
Sequence of UniProt P13945 (whole entry, looked up): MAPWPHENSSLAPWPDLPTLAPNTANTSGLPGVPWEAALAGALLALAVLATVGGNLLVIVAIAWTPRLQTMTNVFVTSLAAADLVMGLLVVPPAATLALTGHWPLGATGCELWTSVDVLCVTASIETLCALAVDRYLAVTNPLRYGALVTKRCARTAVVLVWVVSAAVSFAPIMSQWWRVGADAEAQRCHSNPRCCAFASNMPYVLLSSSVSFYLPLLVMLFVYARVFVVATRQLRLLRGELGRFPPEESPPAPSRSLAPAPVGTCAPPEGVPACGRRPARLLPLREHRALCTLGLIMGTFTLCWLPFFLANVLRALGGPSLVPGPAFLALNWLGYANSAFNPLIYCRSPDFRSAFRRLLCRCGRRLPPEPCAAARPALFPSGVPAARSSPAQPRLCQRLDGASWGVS
Sequence of UniProt P08173 (whole entry, looked up): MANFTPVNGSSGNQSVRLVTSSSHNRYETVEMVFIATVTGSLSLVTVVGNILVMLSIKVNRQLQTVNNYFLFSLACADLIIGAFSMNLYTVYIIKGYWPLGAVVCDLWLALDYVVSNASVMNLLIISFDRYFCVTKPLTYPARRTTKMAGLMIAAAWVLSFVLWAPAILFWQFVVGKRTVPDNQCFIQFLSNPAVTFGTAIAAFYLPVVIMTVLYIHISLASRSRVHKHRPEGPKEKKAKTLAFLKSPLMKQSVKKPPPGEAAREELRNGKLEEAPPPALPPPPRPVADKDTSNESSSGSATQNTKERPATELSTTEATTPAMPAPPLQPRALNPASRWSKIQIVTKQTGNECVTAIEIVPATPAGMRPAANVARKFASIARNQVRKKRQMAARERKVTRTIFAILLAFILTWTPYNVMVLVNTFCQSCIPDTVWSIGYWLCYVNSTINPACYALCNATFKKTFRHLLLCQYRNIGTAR
Sequence of UniProt P18089 (whole entry, looked up): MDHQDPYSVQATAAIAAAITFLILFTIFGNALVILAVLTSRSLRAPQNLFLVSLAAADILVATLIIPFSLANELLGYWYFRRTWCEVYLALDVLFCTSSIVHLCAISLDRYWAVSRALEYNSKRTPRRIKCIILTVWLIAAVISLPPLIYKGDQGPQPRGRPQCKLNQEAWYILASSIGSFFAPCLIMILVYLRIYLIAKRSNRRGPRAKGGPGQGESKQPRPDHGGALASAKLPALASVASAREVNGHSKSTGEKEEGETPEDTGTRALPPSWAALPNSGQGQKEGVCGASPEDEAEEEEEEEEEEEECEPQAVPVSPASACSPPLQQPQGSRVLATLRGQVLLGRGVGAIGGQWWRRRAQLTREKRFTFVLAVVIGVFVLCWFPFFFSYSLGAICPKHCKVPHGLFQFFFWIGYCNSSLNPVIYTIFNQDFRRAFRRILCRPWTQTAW
Sequence of UniProt Q9Y5N1 (whole entry, looked up): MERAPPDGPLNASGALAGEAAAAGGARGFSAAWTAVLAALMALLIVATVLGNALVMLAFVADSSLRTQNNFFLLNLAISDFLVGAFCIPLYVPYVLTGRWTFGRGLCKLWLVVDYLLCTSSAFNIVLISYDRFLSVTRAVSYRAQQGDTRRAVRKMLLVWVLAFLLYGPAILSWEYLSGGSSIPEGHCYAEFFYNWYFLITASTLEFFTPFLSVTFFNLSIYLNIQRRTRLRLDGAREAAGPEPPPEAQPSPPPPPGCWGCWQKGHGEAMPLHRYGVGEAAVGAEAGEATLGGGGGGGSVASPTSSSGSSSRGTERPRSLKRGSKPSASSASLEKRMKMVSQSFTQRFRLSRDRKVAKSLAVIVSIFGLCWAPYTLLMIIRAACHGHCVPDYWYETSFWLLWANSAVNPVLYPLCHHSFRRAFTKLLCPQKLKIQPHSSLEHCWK
Sequence of UniProt P21917 (whole entry, looked up): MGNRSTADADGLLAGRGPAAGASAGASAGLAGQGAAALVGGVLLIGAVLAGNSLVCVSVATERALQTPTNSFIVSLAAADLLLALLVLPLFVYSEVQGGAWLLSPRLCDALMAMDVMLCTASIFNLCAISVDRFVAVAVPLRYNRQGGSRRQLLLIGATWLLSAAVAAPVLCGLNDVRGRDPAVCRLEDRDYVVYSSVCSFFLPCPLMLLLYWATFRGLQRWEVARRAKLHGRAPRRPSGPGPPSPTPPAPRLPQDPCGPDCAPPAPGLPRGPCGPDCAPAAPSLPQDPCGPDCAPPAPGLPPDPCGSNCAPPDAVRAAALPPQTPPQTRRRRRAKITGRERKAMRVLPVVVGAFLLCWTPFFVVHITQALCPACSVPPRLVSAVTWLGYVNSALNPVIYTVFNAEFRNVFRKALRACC
Sequence of UniProt P35368 (whole entry, looked up): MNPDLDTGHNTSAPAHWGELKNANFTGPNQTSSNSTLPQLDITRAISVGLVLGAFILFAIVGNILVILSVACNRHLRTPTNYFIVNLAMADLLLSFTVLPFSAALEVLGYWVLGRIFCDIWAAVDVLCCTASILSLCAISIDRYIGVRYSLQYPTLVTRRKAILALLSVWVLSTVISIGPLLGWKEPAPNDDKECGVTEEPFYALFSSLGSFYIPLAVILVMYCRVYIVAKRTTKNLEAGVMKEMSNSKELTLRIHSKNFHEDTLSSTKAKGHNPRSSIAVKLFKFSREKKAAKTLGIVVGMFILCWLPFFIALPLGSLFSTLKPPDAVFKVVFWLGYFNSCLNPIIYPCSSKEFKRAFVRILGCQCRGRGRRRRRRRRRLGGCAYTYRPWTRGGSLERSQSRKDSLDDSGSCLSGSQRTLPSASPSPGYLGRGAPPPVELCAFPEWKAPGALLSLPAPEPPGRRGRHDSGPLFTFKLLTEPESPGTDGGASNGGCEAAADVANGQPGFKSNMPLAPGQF

Sample 1 — read-out: enzyme activity; action: inhibitor; concentration: 0.5 µM; baseline: control
Target: Insulin receptor-related protein (INSRR, Homo sapiens, UniProt P14616)
Sequence of UniProt P14616 (whole entry, looked up): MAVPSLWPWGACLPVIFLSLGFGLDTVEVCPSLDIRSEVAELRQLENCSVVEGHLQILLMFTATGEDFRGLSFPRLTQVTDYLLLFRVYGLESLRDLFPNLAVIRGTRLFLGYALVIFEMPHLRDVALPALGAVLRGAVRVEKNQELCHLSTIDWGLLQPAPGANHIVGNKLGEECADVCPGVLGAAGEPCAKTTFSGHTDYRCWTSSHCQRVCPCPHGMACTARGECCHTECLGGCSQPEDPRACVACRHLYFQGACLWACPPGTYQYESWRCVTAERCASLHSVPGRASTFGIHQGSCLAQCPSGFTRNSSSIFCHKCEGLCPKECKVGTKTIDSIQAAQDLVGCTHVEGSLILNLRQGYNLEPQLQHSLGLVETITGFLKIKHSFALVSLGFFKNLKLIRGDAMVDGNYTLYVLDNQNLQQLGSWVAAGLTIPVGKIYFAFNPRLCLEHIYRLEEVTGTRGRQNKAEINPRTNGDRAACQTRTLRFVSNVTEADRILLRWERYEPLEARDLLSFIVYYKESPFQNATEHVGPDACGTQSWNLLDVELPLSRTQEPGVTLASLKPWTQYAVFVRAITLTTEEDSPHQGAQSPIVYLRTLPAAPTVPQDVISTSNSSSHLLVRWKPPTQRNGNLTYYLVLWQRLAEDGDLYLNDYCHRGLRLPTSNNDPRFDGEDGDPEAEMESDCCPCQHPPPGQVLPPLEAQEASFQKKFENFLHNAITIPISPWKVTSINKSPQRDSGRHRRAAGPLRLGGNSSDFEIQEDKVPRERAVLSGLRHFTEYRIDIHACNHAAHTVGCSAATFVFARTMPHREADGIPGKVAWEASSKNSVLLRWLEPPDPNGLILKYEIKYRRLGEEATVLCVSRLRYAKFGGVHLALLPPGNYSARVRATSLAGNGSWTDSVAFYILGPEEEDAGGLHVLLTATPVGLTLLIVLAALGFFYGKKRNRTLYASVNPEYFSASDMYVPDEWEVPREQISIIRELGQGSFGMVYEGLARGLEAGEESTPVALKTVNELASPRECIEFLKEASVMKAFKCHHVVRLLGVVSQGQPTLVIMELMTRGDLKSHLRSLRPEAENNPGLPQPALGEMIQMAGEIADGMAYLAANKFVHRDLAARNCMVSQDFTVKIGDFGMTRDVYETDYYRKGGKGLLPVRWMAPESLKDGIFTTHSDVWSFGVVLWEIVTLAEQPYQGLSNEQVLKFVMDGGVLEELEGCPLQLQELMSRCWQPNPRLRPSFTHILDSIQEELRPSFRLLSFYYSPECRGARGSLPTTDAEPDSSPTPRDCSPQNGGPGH
| Structure (SMILES) | remaining activity [%] |
| --- | --- |
| CCN(CC)C(=O)c1ccc(Nc2nc(OCC3CCCCC3)c3[nH]cnc3n2)cc1 | 80.8 |
| CN([C@@H](Cc1ccc(OS(=O)(=O)c2cccc3cnccc23)cc1)C(=O)N1CCN(c2ccccc2)CC1)S(=O)(=O)c1cccc2cnccc12 | 94.9 |
| CN(C)C[C@H]1CCn2c(c(C3=C(c4cn(C)c5ccccc45)C(=O)NC3=O)c3ccccc32)C1 | 98.7 |
| Ic1cccc(CSc2nnc(-c3ccncc3)o2)c1 | 98 |
| O=C1C(Cl)=C(N2C(=O)CCC2=O)C(=O)c2ccccc21 | 96.9 |
| O=C(NC(NC(=S)Nc1ccc(F)c([N+](=O)[O-])c1)C(Cl)(Cl)Cl)C(c1ccccc1)c1ccccc1 (stereo not drawn) | 93.8 |
| Cc1cn(-c2cc(NC(=O)c3ccc(C)c(Nc4nccc(-c5cccnc5)n4)c3)cc(C(F)(F)F)c2)cn1 | 123 |
| CCN(CC)CCNC(=O)c1c(C)[nH]c(/C=C2\C(=O)Nc3ccc(Cl)cc32)c1C | 4.33 |
| C[C@@H]1CCN(C(=O)CC#N)C[C@@H]1N(C)c1ncnc2[nH]ccc12 | 97.5 |
| O=c1cc(-c2cccc3c2Sc2ccccc2S3)oc(N2CCOCC2)c1 | 98.7 |
| COc1cc2c(cc1OC)-c1[nH]nc(Nc3cccc(F)c3)c1C2 | 99.2 |
| N#C/C(=C\c1ccc(O)c(O)c1)C(=O)NCc1ccccc1 | 96.3 |
| O=C1c2ccccc2-c2n[nH]c3cccc1c23 | 83.1 |
| CCN(CC)CCNC(=O)c1c(C)[nH]c(/C=C2\C(=O)Nc3ccc(F)cc32)c1C | 21.7 |
| c1ccc(-c2cnc(Nc3ccc(OCCN4CCCC4)cc3)s2)cc1 | 99.6 |
| c1ccc(-c2[nH]ncc2-c2ccnc3ccccc23)nc1 | 100 |
| O=C(Nc1cccc(Nc2nccc(Nc3cccc(C(F)(F)F)c3)n2)c1)C1CC1 | 89.9 |
| N#Cc1c(NC(=O)c2cccc3ccccc23)sc2c1CCCC2 | 94.3 |
| Cn1nc2c3c(cccc31)C(=O)c1ccccc1-2 | 82.7 |
| COc1cc2ncnc(Nc3cccc(Cl)c3)c2cc1OC | 99 |
| Cc1cc2ncc(-c3ccccc3)nc2cc1C | 95.5 |
| Cc1nc2cc3nc(-c4cccs4)cnc3cc2n1C | 99.5 |
| Nc1cccc(-c2cc3c(Oc4cccc(O)c4)ncnc3[nH]2)c1 | 96.3 |

Sample 2 — SMILES: CCNC(=O)c1cc2c(N3CCOC[C@@H]3C)ccnc2[nH]1; read-out: ligand displacement; method: radioligand; concentration: 10 µM
| target | inhibition |
| --- | --- |
| D(2) dopamine receptor (DRD2, Homo sapiens, UniProt P14416) | 12.3% |
| Muscarinic acetylcholine receptor M2 (CHRM2, Homo sapiens, UniProt P08172) | -1.26% |
| D(4) dopamine receptor (DRD4, Homo sapiens, UniProt P21917) | -3.84% |
| Muscarinic acetylcholine receptor M4 (CHRM4, Homo sapiens, UniProt P08173) | -13.8% |
| Beta-1 adrenergic receptor (ADRB1, Homo sapiens, UniProt P08588) | -11.7% |
| Muscarinic acetylcholine receptor M5 (CHRM5, Homo sapiens, UniProt P08912) | -4.95% |
| Sigma non-opioid intracellular receptor 1 (SIGMAR1, Homo sapiens, UniProt Q99720) | 24.3% |
| Histamine H1 receptor (HRH1, Homo sapiens, UniProt P35367) | 4.94% |
| Alpha-2B adrenergic receptor (ADRA2B, Homo sapiens, UniProt P18089) | 34.4% |
| Histamine H3 receptor (HRH3, Homo sapiens, UniProt Q9Y5N1) | 40.5% |
| 5-hydroxytryptamine receptor 5A (HTR5A, Homo sapiens, UniProt P47898) | -8.05% |
| Beta-3 adrenergic receptor (ADRB3, Homo sapiens, UniProt P13945) | 14.3% |
| Alpha-1B adrenergic receptor (ADRA1B, Homo sapiens, UniProt P35368) | -2.4% |

Sample 3 — method: phase 2a trial; host: idiopathic pulmonary fibrosis patients
SMILES: CC(C)n1cnc(-c2ccc(F)cc2)c1-c1ncc(C(=O)Nc2ccc(N3CCN(C)CC3)cc2)[nH]1
| dose | setting | patients with haematuria [%] |
| --- | --- | --- |
| 30 mg once daily | grade 4 emergent event | 0 |
| all arms pooled | grade 3 emergent event | 0 |
| all arms pooled | grade 5 emergent event | 0 |
| 30 mg once daily | grade 2 emergent event | 0 |

Sample 4 — host: C57BL/6 CES1-/- mice, MC-38 tumour; dose: dose not given; added: anti-PD-1; baseline: initial
Compound: CC(=O)N[C@@H](Cc1c[nH]c2ccccc12)C(=O)N[C@@H](CCC(=O)C=[N+]=[N-])C(=O)OC(C)C
| time | body weight |
| --- | --- |
| day 56 after inoculation | 98.1% and 89.9% and 100% and 105% and 87% |
| day 77 after inoculation | 105% and 101% |
| day 14 after inoculation | 96.8% and 95.9% and 99.6% and 98.7% and 94.6% and 94.8% |
| day 18 after inoculation | 97.2% and 93.9% and 95.9% and 95% and 96.7% and 98.6% and 98.7% |
| day 21 after inoculation | 92.9% and 96.4% and 95.2% and 101% and 98% and 95.9% |
| day 31 after inoculation | 93.5% and 99.5% and 96.4% and 97.4% and 99.1% and 94.3% and 96.1% |
| day 25 after inoculation | 97.7% and 96.2% and 102% and 98.9% and 93.5% and 98.8% and 97.4% |
| day 27 after inoculation | 95.6% and 93.9% and 99.3% and 97.2% and 96.8% and 99.5% and 99.2% |

Repeated from above (sample 1):
| Structure (SMILES) | remaining activity [%] |
| --- | --- |
| Cc1cn(-c2cc(NC(=O)c3ccc(C)c(Nc4nccc(-c5cccnc5)n4)c3)cc(C(F)(F)F)c2)cn1 | 123 |
| CCN(CC)CCNC(=O)c1c(C)[nH]c(/C=C2\C(=O)Nc3ccc(Cl)cc32)c1C | 4.33 |
| C[C@@H]1CCN(C(=O)CC#N)C[C@@H]1N(C)c1ncnc2[nH]ccc12 | 97.5 |
| O=c1cc(-c2cccc3c2Sc2ccccc2S3)oc(N2CCOCC2)c1 | 98.7 |
| COc1cc2c(cc1OC)-c1[nH]nc(Nc3cccc(F)c3)c1C2 | 99.2 |
| N#C/C(=C\c1ccc(O)c(O)c1)C(=O)NCc1ccccc1 | 96.3 |
